Measured values collected from several papers.
Each line is one published result; not all experiments were run side by side. “And” joins repeats or separate records; there may be more than shown. Numbers after ± are the reported error.

| Compound | target or system | test | test system | conditions | scale | measurement | value |
| --- | --- | --- | --- | --- | --- | --- | --- |
| O=C1NC2(CC2)COc2ncc(F)cc2[C@H]2COCCN2c2ccn3ncc1c3n2 |  |  | Sprague-Dawley rat, female, adrenals | oral, 20 mg/kg/day, 4 weeks |  | organ weight | 0.076 ± 0.007 g |
| O=C(c1cncc(-c2ccc3ncnc(Nc4ccc(OCc5cccc(F)c5)c(Cl)c4)c3c2)c1)N1CCOCC1 | Plasmodium falciparum | parasite growth, SYBR Green fluorescence | C235 (TM91C235), drug-resistant |  |  | EC50 | 500 nM |
| COc1ccccc1-c1ccncc1C(=O)Nc1nnc(OCc2ccc(Cl)cc2)s1 | DLD-1 BRCA2-/- |  |  | 0.5 µM, mean of 3 replicates | reference: untreated | colony survival | 54% |
| Cc1cc(C(=O)Nc2nc3cccc(C)c3n2[C@H]2CCCCN(C(=O)/C=C/CN(C)C)C2)ccn1 | Trypanosoma brucei brucei |  | 2T1 CLK1 overexpressing | 10 µM, compound pretreated | reference: maximum | survival | 16.8% and 16.5% and 26% and 22.3% |
| C=CCN1C(=O)C(CC=C)(C(=O)OCC)Oc2cc(F)ccc21 (stereo not drawn) | HaCaT | cell growth or viability, CCK-8 |  | 12.5 µM, 72 h |  | inhibition | 0.35% |
| COc1ccccc1-c1n[nH]c2nc(NC3CCN(C(=O)Cc4ccc(F)cc4F)CC3)ncc12 |  | bead binding, competition bead pull-down, measured: LINJ.34.2410 | Leishmania donovani extract | 10 µM | reference: vehicle | relative abundance | 0.78 |
| CC(C)CC(C(=O)N1CC2(CC1C#N)C(=O)Nc1ccccc12)N(C)C(=O)c1cc2c(F)cc(F)c(F)c2[nH]1 (stereo not drawn) | human coronavirus NL63 | viral replication | LLC-MK2 | 0.0016 µM |  | inhibition | 0% |
| Cc1ccc(NS(=O)(=O)c2c(C(=O)N3CCCCCC3)c(C)n(C)c2C)c(Cl)c1 | Fowlpox virus | viral infection | CEF | 3.704 µM | reference: untreated | infection | 107% and 76.9% and 96.2% |
| COc1ccccc1-c1n[nH]c2nc(N[C@H]3CC[C@H](NS(=O)(=O)CC(C)C)CC3)ncc12 |  | bead binding, competition bead pull-down, measured: LINJ.19.1560 | Leishmania donovani extract | 10 µM | reference: vehicle | relative abundance | 1.05 |
| CC(C)C[C@@H]1NC(=O)[C@@H](Cc2c[nH]c3ccccc23)NC(=O)[C@H](CCCNC(=N)N)NC(=O)[C@@H](CCC(=O)O)NC(=O)[C@H](CCC(N)=O)NC(=O)[C@@H](CCC(=O)O)NC(=O)[C@H](CCCNC(=N)N)NC(=O)[C@@H](Cc2c[nH]c3ccccc23)NC1=O |  | measured: IL10 | LDLr-/- mouse on Western diet, liver | dose not given, 4 weeks |  | cytokine level | 160 ± 58 pg/g tissue |
| CC(C)(C)C(=O)OCOP(=O)(OCOC(=O)C(C)(C)C)C1CCCN(O)C1=O (stereo not drawn) | IGROV-1 |  |  |  |  | GI50 | 393 nM |
| Cc1cc(Oc2nc(N3CC[C@@H](c4ccncc4)C3)ncc2F)[nH]n1 | Mycobacterium tuberculosis |  | THP-1, H37Rv non-replicating | 3.001 µM, day 4 plus 1 |  | normalised growth | 63.4% and 59.2% |

Repeated from above:
| Compound | target or system | test | test system | conditions | scale | measurement | value |
| --- | --- | --- | --- | --- | --- | --- | --- |
| COc1ccccc1-c1ccncc1C(=O)Nc1nnc(OCc2ccc(Cl)cc2)s1 | DLD-1 BRCA2-/- |  |  | 0.5 µM, mean of 3 replicates | reference: untreated | colony survival | 54% |
